# Results pooled from the literature.
# Numbered parts are unrelated; each lists some results of a single study.

# Study 1 — technique: protein binding microarray; form: double-stranded DNA, one strand shown; sample: in vitro; concentration: not given; baseline: not given; reading: higher = stronger binding
# Target: Histone acetyltransferase KAT6A, winged helix 2, GST fusion (KAT6A, Homo sapiens, UniProt Q92794, residues 85-181)
# Setting: 8-mer, flanks averaged, mean of 2 arrays, mostly near background
# Residues (chain): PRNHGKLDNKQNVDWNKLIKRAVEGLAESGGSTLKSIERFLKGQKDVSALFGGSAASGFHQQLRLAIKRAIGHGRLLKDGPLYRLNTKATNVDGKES
Strand,E-score
ACGCGATC,-0.00253
ACCCGTAC,-0.225
CAATAGCG,-0.184
CAAAGTTG,0.0939
GGTATAAC,-0.145
GGCACCGA,0.0824
CTTTACCC,0.00571
CGAGCTAC,-0.081
ATATCTGC,0.0583
ATAGAAAA,-0.0252
ACCAAAAA,0.22
ATCGTCGC,0.156
GAACTGGA,0.0765
CAGCTCGC,0.0272
CTAAGGAA,0.0132
AGTCTGGC,-0.0281

# Study 2 — technique: universal PBM; form: double-stranded DNA, one strand shown; sample: in vitro; concentration: 600 nM; reading: higher = stronger binding
# Target: Sal-like protein 4, full length isoform A (SALL4, Homo sapiens, UniProt Q9UJQ4, residues 1-1053)
# Sequence of UniProt Q9UJQ4 (whole entry, looked up): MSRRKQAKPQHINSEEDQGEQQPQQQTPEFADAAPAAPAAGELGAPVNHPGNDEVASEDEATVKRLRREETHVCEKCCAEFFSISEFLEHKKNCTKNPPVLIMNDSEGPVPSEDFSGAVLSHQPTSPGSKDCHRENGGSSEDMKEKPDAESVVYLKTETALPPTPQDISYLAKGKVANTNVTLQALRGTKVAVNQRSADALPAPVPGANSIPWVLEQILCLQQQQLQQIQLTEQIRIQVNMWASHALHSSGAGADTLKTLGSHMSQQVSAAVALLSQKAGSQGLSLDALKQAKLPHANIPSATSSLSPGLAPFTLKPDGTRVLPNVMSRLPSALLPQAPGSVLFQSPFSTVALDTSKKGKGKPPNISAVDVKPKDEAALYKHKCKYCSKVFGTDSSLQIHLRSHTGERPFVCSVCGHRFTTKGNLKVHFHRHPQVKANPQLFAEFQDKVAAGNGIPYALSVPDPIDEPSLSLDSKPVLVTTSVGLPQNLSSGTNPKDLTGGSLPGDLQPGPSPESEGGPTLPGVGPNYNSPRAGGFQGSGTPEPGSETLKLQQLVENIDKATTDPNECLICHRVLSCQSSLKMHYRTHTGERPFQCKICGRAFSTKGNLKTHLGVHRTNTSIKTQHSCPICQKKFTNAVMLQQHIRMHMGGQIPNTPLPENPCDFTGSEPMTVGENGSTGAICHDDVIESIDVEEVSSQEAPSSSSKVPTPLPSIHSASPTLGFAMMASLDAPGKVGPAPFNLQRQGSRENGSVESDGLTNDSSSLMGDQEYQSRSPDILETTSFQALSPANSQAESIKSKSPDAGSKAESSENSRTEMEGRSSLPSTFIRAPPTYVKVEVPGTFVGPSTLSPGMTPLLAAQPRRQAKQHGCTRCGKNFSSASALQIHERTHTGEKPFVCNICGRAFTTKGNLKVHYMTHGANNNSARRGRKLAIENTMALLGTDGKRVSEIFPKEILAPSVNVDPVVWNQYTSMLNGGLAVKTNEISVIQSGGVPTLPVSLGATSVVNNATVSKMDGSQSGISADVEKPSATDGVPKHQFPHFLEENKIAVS
# Setting: 8-mer, flanks averaged, mean of replicates
Strand,E-score
GCAATCTA,0.117
GAAGTAGA,0.105
CTCTGCCC,-0.123
CGTTGCCA,0.021
CAGTGTTC,0.0787
AACGACTC,-0.181
AGTCAATC,0.0406
AGTGGGCC,-0.322
GCTACGCC,-0.286
ACGCAATG,0.0158
AGCGGCTC,-0.289
AGTTCACG,-0.0316
ACTCCAAA,0.0462
AGCGGTTC,-0.135
CGATGCGA,-0.17
GATGCGCC,-0.131
ACCCTACA,0.0249
CGGTATAG,-0.0799
AGGGCGAT,-0.142
GAGGCCCC,-0.415
CATCCCCA,-0.197
ATCTTTCG,0.0167
AGTTATTA,0.437
AATAATTA,0.449
GCAAGTCA,-0.21

# Study 3 — technique: RNA Bind-n-Seq; form: RNA; sample: in vitro; concentration: 365 nM; baseline: no-protein control; reading: higher = stronger binding
# Target: RNA binding protein fox-1 homolog 2, RRM domain, GST-SBP tag (RBFOX2, Homo sapiens, UniProt O43251-10, residues 100-194)
# Setting: natural RNA segment, single round, ends assumed
# All sequences stand within: GGGAGUUCUACAGUCCGACGAUC … UGGAAUUCUCGGGUGCCAA
# Construct (chain): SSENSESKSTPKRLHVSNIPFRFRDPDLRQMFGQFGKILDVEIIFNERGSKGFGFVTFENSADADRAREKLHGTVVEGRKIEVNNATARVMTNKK
Strand,RBNS enrichment (R)
UGAAGCACCCGUGACUGCAACCCGGGCGGUUGUUGCUAGAGCCUUGCCAGUCCUUGGAAGAAGAGUUCAUCUGGGUCUGAUUGACUGUAGAGAUUUGACACGUUCAUAAA,0.645
UGUGUGUGUCAUACUUCUUUUGGGAGGGGGUUGUUUUCUUCUUUUAUGAAACUCCUACUGGAGCUCAAUUUGUAAUUUAGAAACAUUUAAUUUUGUUAAUCCUGUCUGGG,0.808
GCUGCAGCCGGCUCACCUCUCUCCGCUUCUUGCACAUCACUGGCCUGUGUGUGCUGCUUGCUCCUGUUCUGUUCGCUUGCUCCCGUUCCGUUCGGCUUUUGCUUUGCGUU,7.4
GCAGUGCAUUGAAGGACCCAAGUCCUCAGCCUACUUUCCUACUUUCUGACUGUAGUAAAAGCUGCUUCCUGUCCUGUUCAAGUUGCUGCAGCAGGGGUCAUGCCAAGUCA,0.354
UCAUACAGACUUUUAAUCCUCUACCACAUGCGAAUGCUGAACCCUCAGGAAGACCCACCUCUAUACCAUCUAGGAAGUGGGCACUGACUUUAAAGCGCUCCAGCCAACAG,0.36
AUGAUUUAUGGGAAUGAAGCAAGUACUGAAAUCAAAUUAAAUACUCCCUGGGUCCUGGGUCAGUUUGACCCUAGCCCUGGGGUGAGGCAAGCCCCCUCCUAUGAGGAUGA,0.419
AUGAGUCCCAUCUGUAAAUUCUUUGCUCCCUUCUCCGAUGCUGCCACCCAAGGCCUUCUCCUGCCUCCUGUCCACUGCCAGCGUCCUCAUUUGUCAUCGGUCAUUAGCCU,0.635
GCUCAAAUAGUCUAUACCUGAACUGCUAUAAGCAAGGUCGAUAGGGAAGUGGAUAGAUUGCUUCAGCAAAGUGAACUGUGAGAUCUCCAGGACAGAGGGAGAAAGAUCUG,2.1
UAAUCAAGCACUAUGUUAAUACUGUAAUAUCAGAAUACUAUGUUGCAUUAUUUAAAAUGUUCAAAUUGAAUAGAUUAAAAAGUUUUUAAAUGCUAUUGCAUCAUAUAAUU,0.735
AUGUCAUUUUCCUACUGCCAUAGAUACCCUAAGCCCAGGGCCCCUUGAGGCCCAGACUCAGCCUGCCCACUGGUGCCGGAGACGGAGUGGAGUGGGCCUGGAUCCGAGGG,0.205
UCAGCUGCCCAGGCCCCAGCAUGGAGAUGGCCUGCACAGCAGGCUCAGCACCUCUGAGGUGUGCAUUAGCCACUUAUAGCAGCAGUCUGUACUCUUUCAAGUACGCAAGC,3.03
CAGGAAAUAUUUUAAUUGGGCUGAUUUUAAUUAGGCUGUAUCAUUGAUGAUUACUGGAAUCGAUUUUAUGUCUUUUGUAUUUUAAUCACUUGAGUUAAUCAACCACUGGC,0.602

# Study 4 — technique: Spec-seq; form: double-stranded DNA, one strand shown; sample: in vitro; concentration: not given; setting: whole probe, mean of replicates; baseline: not given; reading: lower = stronger binding; all sequences stand within: GAGTCGTCTCGTCAGCAC … CCGTAGAGCACTCAGGTC
# Target: POU domain, class 5, transcription factor 1, POU domain (Pou5f1, Mus musculus, UniProt P20263, residues 131-289)
# Sequence of UniProt P20263 (131-289, looked up): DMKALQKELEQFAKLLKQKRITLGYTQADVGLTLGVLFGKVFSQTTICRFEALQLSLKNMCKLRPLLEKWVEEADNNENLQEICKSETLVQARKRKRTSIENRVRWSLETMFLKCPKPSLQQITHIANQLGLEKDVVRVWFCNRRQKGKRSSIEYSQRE
Strand,relative binding energy [ln ratio]
ATGCACCA,0.0437
ATAGGTAT,0.643
ATCTTCAT,0.295
ATGCACTA,0.0463
ATCCGTAT,0.525
TAATTAAT,-1.88
ATTAATAT,-0.707
ATCGTAAT,0.464
ATTAGTAT,-0.142
CGGATAAT,0.703
GAGGTAAT,0.602
ATTGTAAT,-0.225
ATATCAAT,-0.0717
GTCGTAAT,0.536
GGAATAAT,-1.14
ATCTATAT,0.175
ATCCCGAT,0.784
ATTTGCAT,-3.13
CTTTTAAT,0.494
ATCGTTAT,0.451

# Study 5 — technique: RNAcompete; form: RNA; sample: in vitro; concentration: 20 nM; setting: 7-mer, probes averaged, single round; baseline: mean of 7-mers; reading: higher = stronger binding
# Target: PABPC1L2, full length, GST fusion (mouse, UniProt A0ABA7IW68)
# Residues (chain): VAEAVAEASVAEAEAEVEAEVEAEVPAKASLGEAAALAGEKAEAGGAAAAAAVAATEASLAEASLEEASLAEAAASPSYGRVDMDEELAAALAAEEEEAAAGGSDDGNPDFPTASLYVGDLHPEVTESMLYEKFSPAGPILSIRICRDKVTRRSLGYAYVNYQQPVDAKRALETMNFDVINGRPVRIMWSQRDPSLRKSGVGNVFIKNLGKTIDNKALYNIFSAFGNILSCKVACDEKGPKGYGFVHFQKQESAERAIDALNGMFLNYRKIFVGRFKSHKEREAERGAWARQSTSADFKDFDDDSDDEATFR
Strand,7-mer Z-score
AUUCGCG,-0.249
AAGUCUA,-0.108
CAGUACC,-0.108
AAGUCCC,0.0116
UGAUCCA,-0.0863
GCUUGCA,-0.155
UUCACUA,-0.229
AAUGGGG,0.541
UGCCUCG,-0.347
UUCAUAC,-0.275
CACAUUC,-0.307
UAUAGUC,-0.307
UUGACGU,-0.302
CGGCCUG,-0.394
GAGAGCC,-0.0844
GAGGAUA,0.142
UGUUCAU,-0.36
CUCGAGG,-0.208
GGGACCA,0.412
AAAGCUC,0.338
AUGUCAG,-0.0337
AGCGCCA,-0.0446
AAUGACG,0.186

# A few entries again (study 1):
Strand,E-score
GGTATAAC,-0.145
GGCACCGA,0.0824
CTTTACCC,0.00571
CGAGCTAC,-0.081
ATATCTGC,0.0583
ATAGAAAA,-0.0252
ACCAAAAA,0.22
ATCGTCGC,0.156
GAACTGGA,0.0765
CAGCTCGC,0.0272
CTAAGGAA,0.0132
AGTCTGGC,-0.0281
